# Assay results gathered from unrelated publications.
# A part holds a random share of what one study measured. Changes are numbered by the printed parent chain.

# Series 1
# Target: Sal-like protein 4, full length isoform A (SALL4, Homo sapiens, UniProt Q9UJQ4, residues 1-1053)
# Chain of UniProt Q9UJQ4 (whole entry, looked up): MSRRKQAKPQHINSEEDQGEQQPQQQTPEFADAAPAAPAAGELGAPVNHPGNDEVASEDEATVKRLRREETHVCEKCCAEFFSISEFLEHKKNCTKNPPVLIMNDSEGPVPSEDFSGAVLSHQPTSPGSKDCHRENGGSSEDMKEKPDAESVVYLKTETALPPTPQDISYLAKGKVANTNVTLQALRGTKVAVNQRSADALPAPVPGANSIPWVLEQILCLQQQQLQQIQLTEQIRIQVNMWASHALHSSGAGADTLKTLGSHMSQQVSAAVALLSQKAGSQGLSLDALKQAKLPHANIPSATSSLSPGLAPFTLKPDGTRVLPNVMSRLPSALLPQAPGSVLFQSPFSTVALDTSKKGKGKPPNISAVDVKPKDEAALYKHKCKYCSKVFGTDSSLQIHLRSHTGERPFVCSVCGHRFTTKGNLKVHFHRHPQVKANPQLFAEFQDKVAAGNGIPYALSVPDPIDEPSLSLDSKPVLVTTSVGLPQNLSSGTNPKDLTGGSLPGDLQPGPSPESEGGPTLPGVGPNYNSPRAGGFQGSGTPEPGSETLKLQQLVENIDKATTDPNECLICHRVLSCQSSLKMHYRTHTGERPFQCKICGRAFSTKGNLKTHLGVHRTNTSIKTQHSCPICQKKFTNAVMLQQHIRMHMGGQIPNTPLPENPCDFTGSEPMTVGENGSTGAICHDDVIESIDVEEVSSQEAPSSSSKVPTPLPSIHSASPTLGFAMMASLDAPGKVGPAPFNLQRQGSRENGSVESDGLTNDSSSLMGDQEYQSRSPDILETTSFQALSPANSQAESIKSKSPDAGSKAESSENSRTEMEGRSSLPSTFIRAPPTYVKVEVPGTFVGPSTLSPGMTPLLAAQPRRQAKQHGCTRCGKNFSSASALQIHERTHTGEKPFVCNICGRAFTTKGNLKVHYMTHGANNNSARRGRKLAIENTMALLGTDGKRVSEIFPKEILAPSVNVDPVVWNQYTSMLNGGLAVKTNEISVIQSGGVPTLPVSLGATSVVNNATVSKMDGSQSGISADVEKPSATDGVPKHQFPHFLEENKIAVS
# Method: universal PBM
# Molecule type: double-stranded DNA, one strand shown
# Medium: in vitro
# Tested at: 600 nM
# Setting: 8-mer, flanks averaged, mean of replicates
# Reading: higher = stronger binding
Oligonucleotide,E-score
CCAGTTAA,0.201
GGGCGAAA,-0.00249
AGGAAGGC,-0.208
AACCGCCC,-0.318
ACGTGCTC,-0.224
ATCTTGCA,0.247
CGTGGCTA,-0.0785
GTCCAGAA,-0.00524
GACAATAA,0.27

# Series 2
# Substance: PhoQ, residues 284 288 289 292 302 303 TAVSDG
# Method: Sort-seq
# Measured: YFP reporter
# Medium: E. coli
# Setting: PhoQ-PhoP variant library
# With: 10 µM Mg2+
# Baseline: high Mg2+ state
# Reading: higher = stronger signaling
target,fold induction
"PhoP, residues 12 14 15 18 19 NYFRM (Escherichia coli, UniProt P23836)",13.4
"PhoP, residues 12 14 15 18 19 QYFSL (Escherichia coli, UniProt P23836)",2.05
"PhoP, residues 12 14 15 18 19 TQALL (Escherichia coli, UniProt P23836)",7.65

# Series 3
# Target: CCNA1, cyclin fold, Cln2 fusion (human)
# Method: yeast growth competition, sequencing
# Medium: yeast
# Setting: weak parent motif
# Baseline: not given
# Reading: higher = stronger binding
# Starting sequence: GMNC docking peptide (human); KNAKRNLSSEFAN; partner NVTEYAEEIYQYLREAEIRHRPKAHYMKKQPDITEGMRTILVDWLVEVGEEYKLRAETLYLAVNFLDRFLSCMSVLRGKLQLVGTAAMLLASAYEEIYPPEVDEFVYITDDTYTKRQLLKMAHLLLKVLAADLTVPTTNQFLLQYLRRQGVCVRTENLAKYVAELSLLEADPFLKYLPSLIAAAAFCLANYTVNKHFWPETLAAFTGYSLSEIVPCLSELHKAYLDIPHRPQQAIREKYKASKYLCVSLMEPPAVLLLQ
Variant,normalised enrichment score
N2H,0.475
A3I,0.754
F11K,-0.124
N6G,0.212
S8Y,0.673
S9M,0.316
S8A,0.528
E10V,0.177
L7I,1.64
S8C,0.338
L7V,0.341
K4D,0.0356
N2W,0.449

# Series 4
# Target: Histone acetyltransferase KAT6A, winged helix 1, GST fusion (KAT6A, Homo sapiens, UniProt Q92794, residues 1-85)
# Method: protein binding microarray
# Molecule type: double-stranded DNA, one strand shown
# Medium: in vitro
# Tested at: not given
# Setting: 8-mer, flanks averaged, mean of 2 arrays, mostly near background
# Baseline: not given
# Reading: higher = stronger binding
# Target sequence (chain): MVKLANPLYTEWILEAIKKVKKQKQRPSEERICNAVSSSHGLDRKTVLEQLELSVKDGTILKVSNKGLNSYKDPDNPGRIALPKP
Oligonucleotide,E-score
ATGTGGTC,-0.215
ACTTCGAT,-0.0222
ATCTCCTG,-0.202
AATCGTAT,-0.152
AACGGGTG,0.28
CGTACGAC,-0.0985
CCACTGGC,-0.199
ACTTAGTA,-0.117
AGCCCCGG,0.219
AGCATTAT,-0.098
ACGCTACA,-0.0257
GAGGTATC,0.0507
